Experimental data collected from several papers.
A part holds a random share of what one study measured. Substitutions count along the parent as printed.

Sample 1 — method: protein-binding microarray; form: double-stranded DNA, one strand shown; matrix: in vitro; tested at: not given; reading: higher = stronger binding
Target: Protein max, full length (MAX, Homo sapiens, UniProt P61244-2, residues 1-151)
Notes: k-mer, scored over probes, only values ≥0.25
Strand	E-score
CATGATCA	0.258
ACATATGA	0.287
GGAACGCA	0.282
ACTCGTGC	0.374
CGCGTGCC	0.437
GAGTGCAC	0.315
CATGCAGC	0.35
CAAATGTG	0.26
CTACACGC	0.389
CCACGAGG	0.478
CATGCCTA	0.352
CAAACGTG	0.365
CGAGCACG	0.398
ATGCGTGG	0.358
ACACGCCA	0.314
CTCGTGCC	0.4
CGCCACAC	0.304
TGCGCACA	0.346
CCACGTTA	0.385
GCATGTAA	0.328
AGACCACG	0.39
GCGCGCAC	0.294
AGTACACG	0.353
CATCGTGC	0.346
ACGGGGGG	0.255

Sample 2 — method: RNA Bind-n-Seq; form: RNA; matrix: in vitro; tested at: not given; notes: RNA with constant flanks, ends assumed; baseline: input RNA pool; reading: higher = stronger binding
Target: RING finger protein unkempt homolog, zinc fingers 1-6, GST-SBP tag (UNK, Homo sapiens, UniProt Q9C0B0, residues 30-357)
UniProt Q9C0B0, sequence (30-357, looked up): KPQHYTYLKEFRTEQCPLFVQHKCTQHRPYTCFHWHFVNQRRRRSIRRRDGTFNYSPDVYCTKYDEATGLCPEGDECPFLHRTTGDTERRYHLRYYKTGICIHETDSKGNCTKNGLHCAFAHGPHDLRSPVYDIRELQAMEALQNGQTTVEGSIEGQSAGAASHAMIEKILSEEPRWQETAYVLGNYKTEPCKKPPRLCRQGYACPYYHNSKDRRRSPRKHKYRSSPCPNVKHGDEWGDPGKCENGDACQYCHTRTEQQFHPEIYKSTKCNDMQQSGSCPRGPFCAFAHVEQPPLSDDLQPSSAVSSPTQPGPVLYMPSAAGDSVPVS
Constant ends, left off below: GGGAGUUCUACAGUCCGACGAUC … CAACAGAGGAUUGAGCAUCA
Strand	bound/input enrichment [ratio]
UGCAAGCUGCCAAGACUGUCUCUGAACGGGGUCCGGUUUAAGCGGAUAUCGGGGACAUCCACCGCCUUCAAAAAUAUUGCUUCCAAAAUUGCCAAUGAGCUAAAGCUGUAACCCAGUGAU	0.128
CGGAGUCGGGAGGCUGAGUGUUCAUUCCAGCAUGUCGGAAGGGGAGUCCCAAACAGCCGUCAGCAGUGGCUCAGACCCAAAGGUAGAAUCCUCAUCUUUAGCUCCUGGCCUGACUUCUGU	0.175
CUGAAGAGUGUUUCUGAAAGAUCUAUCCAGCACUCCGAUGGCCAGCAACAACACCGCCAGCACCGCACAAGCCAGGAAGCUGGUAGAGCAGCUUAAGAUGGAAGCCAAUAUCGACAGGAU	0.127
GCACGCCUUGCUAGUUUAAUGAAUCUUGGAAUGAGUUCUUCAUUGAAUCAACAAGGAGCUCACCGUGCACUGUCUUCUGCUAGUACUUCUUCCCAUAAUUUGCAGUCUAUAUUUAACAUU	0.552
ACACUCUGACAUGAAUGAAUUAUUAUUAUUUUUAUUUUUCUUUUUUUUUUUACAUUUUGUACCGAAACAAAUUCAUUUAAACAAACUUAUUAUUAUUAUUUUUUACAAAAUAUAUAUAUG	68.1
AUUUAGAGAAUGAUUUCCACCUUUAUGUUUUAAUAUCCUAGGCAUCUGCUGUAAUAAUAUUUCCGAAAAUGUUUGGAAUUUAAGAAAUAACUUGUGUUACUAAUUUGUAUAACCCAUAUC	1.8
AAACCUUCAACUGUAGAAGUUCUAGAAAGUAUAGAUAAGGAAAUUCAAGCAUUGGAAGAAUUCCGGGAAAAAAAUCAGAGAUUACAAAAAUUAUGGGUUGGAAGAUUAAUUCUGUAUUCC	3.71
GGAAUGGAUGCUCUUCCUUAUAUUGAUUUAAUUGACCCAGCUGAGAUUGAUCUCCUAUUAAUCCGUCAUUUCCAUUUGGAUCACUGUGGAGCUCUGCCCUGGUUUCUACAGAAGACAAGU	0.422
GAGGAUAAUCCAUUUGCAGAGUACAUGUGGAUGGAAAAUGAAGAGGAAUUCAACAGACAAACCGAAGAGGAGUUGUGGGAAGAAGAAUUUAUUGAACGCUGUUUCCAAGAAAUGCUGGAA	0.32
GUAUUUAAGUUUGCUGUAGAUUGUGUGUGUGUGUGCUAAGUAAAAGUUCCAUGAUUCACAAUUUCCGUAUUAACCCAUGUUGCAAAAGCUGUUACUGGCCAACAGAUUGUAAUGAUGUGU	0.406
GCUGAUUUUGAGAAGGUUUUCUGCAUUGGACCAGUUUUCAGAGCUGAAGACUCCAAUACCCACCGACAUCUGACUGAAUUUGUUGGUUUGGAUAUUGAAAUGGCCUUUAAUUAUCAUUAC	0.214

Sample 3 — method: RNA Bind-n-Seq; form: RNA; matrix: in vitro; tested at: 365 nM; baseline: no-protein control; reading: higher = stronger binding
Target: RNA binding protein fox-1 homolog 2, RRM domain, GST-SBP tag (RBFOX2, Homo sapiens, UniProt O43251-10, residues 100-194)
Notes: natural RNA segment, single round, ends assumed
Constant ends, left off below: GGGAGUUCUACAGUCCGACGAUC … UGGAAUUCUCGGGUGCCAA
Residues (chain): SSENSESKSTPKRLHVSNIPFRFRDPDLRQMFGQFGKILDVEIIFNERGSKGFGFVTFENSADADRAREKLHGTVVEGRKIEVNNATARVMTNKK
Strand	RBNS enrichment (R)
GAUACAGCAGUAGACAUUUUAACAAGAAGAUGAAUGGCGUCCGUGGGUUGCUAACUGAACUUUGAAGACCCGCUACAAAACGCGCAGAUGUGCAGCAGAUUGGAAGGAGA	0.66
ACUGAGCAGUUAAAAAACACUGACAUAUUGCUUCCCUCAUGAAGUAAACGAUACAGGGAACUGGUUGAAGAGAUUGGAAUUUUAUUUAGUUGGCUUUGUUUUCCUUAAAG	0.411
CGGCUUCAUUCACCCCCACUUGGAUUCUAAACAUGACCAGUGAAAUAGUGAAAGCUGACCACAGUUGUUCCCAAAUAAAGGUCGGCAGCUCCUACCAGGUCUGGGAUUGA	0.25
UGGAGCACAUCAUGGCCACCAACCGGCUGGAUGAGGCGGAGCUGGGUCGCCUGCUACCCGACUGAUGUCCGUUGAGGGCUGCAGUCAGAGGCCCUGGACAGAAGCUCCAG	0.34
CAAAGGUUGAGAAUGAGAAUUGUUUUUUCCUGGAUAUCAAAGGGAUUAUCACAGCGCAAUCAUUGUCUACACAACAUGUACUCUCAACGCCUGGGUUACAUAGGAAAUGC	6.96
UUGCUGAGGAUAAGGGCAUACACGCUGCUCCUCGCUUUCUUGUUGCCCGACUUCGUACUAAGCAGCUCAGGAGCAGUCACUCAGACCCAAAUGUCUUGACUGUGUUGUUU	0.464
AGGUGGGGAACAAUCCUUGCCAGAGUGGGCUGGGACCAGACUUUGUUCUCUUCCUCACCUGAAAUUAUGCUUCCUAAAAUCUCAAGCCAAACUCAAAGAAUGGGGUGGUG	0.218
UGUCAGUUUUUGCAAAAAGGCCUGCUGGGGUUUCCAUAGGGAAUGUUUUGAAUCUAUAGAUGAGUCAAGGAAGAACUGCCAUCUUAACAGUAUUGGGUCUUCCGAUUUAU	0.9
UCAGAUCUCCCUUGCUAUUACAGUAGGUUACUAUUAAUGAGGGCAGCACCUGAUGCCUUUUGUACUGAGGUAUGUAACUUUCUCCUUAUUUGACAAGUAGAAGUUAACUU	0.658
UGAGUGAAUUGUUAGAUGUGCACUGAACUCGGGAUGUUGGGGAUUGGAGAGAGAGAAUUGCCAAAGUAACAGCAAAAAUAUCUCUUACUUUGCUUUGUUUAUAAAUAAAU	1.62
AGACCAGACUCUUGCUUCUGAUCUUCCUUCAGCCCUCAGUGUGGGAAUAAAUUAAGUUUCUCAACAUACACAUUUUAGCUGGUCAAUGACUAAAACAUUUUUUCAGUGGA	0.283
UAAACUGUACUGUUUGCAAGUAGUUUAUAGAAAUUUUGUUUUAAGUCUUCAAAUACCUUGAAAAAAAAUAGACUGUAUGUUGAAAAUUGUAUUGAAAUAAAGUAGAAAAU	0.608

Sample 4 — target: CCND1, cyclin fold, Cln2 fusion (human); method: yeast growth competition, sequencing; matrix: yeast; notes: strong parent motif; baseline: not given; reading: higher = stronger binding
Starting sequence: E2F2 docking peptide (human); LPAKRKLDLEGIG
Substitution	normalised enrichment score
R5A	0.527
L1A	0.625
I12A	1.16
L9F	4.53
P2A	0.221
R5K L9F	0.644
L7A	-0.107
R5A L7A	0.202
K4A	2.92

Sample 5 — method: Spec-seq; form: double-stranded DNA, one strand shown; matrix: in vitro; tested at: not given; notes: whole probe, mean of replicates; baseline: not given; reading: lower = stronger binding; constant ends, left off below: GAGTCGTCTCGTCAGCAC … CCGTAGAGCACTCAGGTC
Target: POU, POU domain (Salpingoeca helianthica)
Construct (chain): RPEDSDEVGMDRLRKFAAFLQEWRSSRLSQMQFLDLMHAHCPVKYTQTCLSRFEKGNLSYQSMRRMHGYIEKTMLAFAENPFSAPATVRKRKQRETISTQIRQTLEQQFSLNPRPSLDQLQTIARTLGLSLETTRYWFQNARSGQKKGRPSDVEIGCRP
Strand	relative binding energy
GGCTTAAT	0.488 ln ratio
ATGCTCAC	1.15 ln ratio
ATCGCTAT	1.01 ln ratio
AGGATAAT	0.601 ln ratio
ATCTTTAT	0.352 ln ratio
ATGCGGCG	1.46 ln ratio
GGTCTAAT	0.737 ln ratio
ATGGTCAT	1.11 ln ratio
ATGCAACT	1.06 ln ratio
ATCGACAT	1.21 ln ratio
ATTTTTAT	0.401 ln ratio
ATCCGCAT	1.23 ln ratio
ATGCGAGT	1.42 ln ratio
